Measured values gathered from unrelated publications.
Numbered parts are unrelated; each lists some results of a single study. Changes are numbered by the printed parent chain.

Study 1
Target: Prothrombin, mature alpha-thrombin (F2, Homo sapiens, UniProt P00734)
Method: aptamer microarray, sandwich
Form: DNA with 2'F-ANA
Sample: in vitro
Concentration: 200 nM
Notes: whole 15-mer aptamer, many near background
Added: Cy3 exosite-II aptamer, 400 nM
Reading: higher = stronger binding
Oligonucleotide: GGTTGGTGTGGTTGG
`2'F-ANA at 5 6 7 8 11 14 15`: “mean fluorescence intensity” 42.9 a.u.
Under “mean fluorescence intensity”, `2'F-ANA at 3 4 5 6 7 9 10 11 13` is recorded as 52.6 a.u.
`2'F-ANA at 1 2 5 6 7 10 14` — result for “mean fluorescence intensity”: 45.7 a.u.
For `2'F-ANA at 3 4 5 6 10 11 12 13 15`, “mean fluorescence intensity” read 73.3 a.u.
Under “mean fluorescence intensity”, `2'F-ANA at 1 2 5 6 11 12 15` is recorded as 79.5 a.u.
Under “mean fluorescence intensity”, `2'F-ANA at 4 8 9 10 11` is recorded as 74.1 a.u.
`2'F-ANA at 3 4 5 8 9 13`: “mean fluorescence intensity” 70.6 a.u.
Under “mean fluorescence intensity”, `2'F-ANA at 1 3 4 8 9 11 14` is recorded as 66.7 a.u.
For `2'F-ANA at 1 3 5 7 13`, “mean fluorescence intensity” read 58.4 a.u.

Study 2
Target: TAR DNA-binding protein 43, full length, His tag (TARDBP, Homo sapiens, UniProt Q13148, residues 1-414)
Method: RNA Bind-n-Seq
Form: RNA
Sample: in vitro
Concentration: 20 nM
Notes: 6-mer, flanks averaged, single round
Added: 150 mM KCl
Baseline: input library
Reading: higher = stronger binding
`UUCAAC` — result for “6-mer enrichment (R)”: 0.548.
`GGGGUG`: “6-mer enrichment (R)” 7.34.
For `UGCACC`, “6-mer enrichment (R)” read 0.723.
Under “6-mer enrichment (R)”, `GUCUGA` is recorded as 0.816.
For `CAUAAC`, “6-mer enrichment (R)” read 0.631.
Under “6-mer enrichment (R)”, `UCAGAC` is recorded as 0.618.
For `UGGGCG`, “6-mer enrichment (R)” read 4.23.
Under “6-mer enrichment (R)”, `UGCCGG` is recorded as 1.41.
For `AGUUCC`, “6-mer enrichment (R)” read 0.588.
Under “6-mer enrichment (R)”, `ACUGGA` is recorded as 0.84.
For `CUUUAU`, “6-mer enrichment (R)” read 0.605.
`GAGCCG` — result for “6-mer enrichment (R)”: 1.42.
Under “6-mer enrichment (R)”, `CGUGGA` is recorded as 1.4.
`UAAAUG`: “6-mer enrichment (R)” 0.749.
For `GCGCCA`, “6-mer enrichment (R)” read 0.953.
`GAAGGU`: “6-mer enrichment (R)” 1.37.
`AGGGAA` — result for “6-mer enrichment (R)”: 2.25.

Study 3
Target: CCNE1, cyclin fold, Cln2 fusion (human)
Method: yeast growth competition, sequencing
Sample: yeast
Notes: strong parent motif
Baseline: not given
Reading: higher = stronger binding
Starting sequence: RBL1 docking peptide (human); GSAKRRLFGEDPP; partner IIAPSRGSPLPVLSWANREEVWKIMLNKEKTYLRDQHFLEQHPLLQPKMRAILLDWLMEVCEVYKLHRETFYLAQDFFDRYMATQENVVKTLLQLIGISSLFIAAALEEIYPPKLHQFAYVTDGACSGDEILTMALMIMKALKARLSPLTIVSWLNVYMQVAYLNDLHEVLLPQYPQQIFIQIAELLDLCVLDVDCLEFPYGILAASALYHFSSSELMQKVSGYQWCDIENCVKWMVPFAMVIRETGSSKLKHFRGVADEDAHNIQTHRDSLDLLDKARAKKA
`G9L`: “normalised enrichment score” 6.71.
`S2I`: “normalised enrichment score” 3.68.
Under “normalised enrichment score”, `A3Q` is recorded as 0.46.
`G1A` — result for “normalised enrichment score”: 7.04.
`P12S`: “normalised enrichment score” 7.06.
Under “normalised enrichment score”, `P13V` is recorded as 6.85.
For `S2R`, “normalised enrichment score” read 5.92.
Under “normalised enrichment score”, `K4P` is recorded as 0.591.
Under “normalised enrichment score”, `R6I` is recorded as 4.93.
`P13W`: “normalised enrichment score” 6.07.
`G9W` — result for “normalised enrichment score”: 7.33.
`R5G` — result for “normalised enrichment score”: 0.0659.
Under “normalised enrichment score”, `D11I` is recorded as 4.5.
`D11P`: “normalised enrichment score” 4.47.
`K4W` — result for “normalised enrichment score”: 1.12.
For `R5I`, “normalised enrichment score” read 0.323.

Single results of other studies
With `PhoQ, residues 284 288 289 292 302 303 NSMLDC` the fold induction was 7.71 (PhoP, residues 12 14 15 18 19 IFFTR (Escherichia coli, UniProt P23836); Sort-seq, measured: YFP reporter; E. coli; PhoQ-PhoP variant library, added: 10 µM Mg2+; baseline: high Mg2+ state, higher = stronger signaling).

Some of these lines once more (study 1):
For `2'F-ANA at 3 4 5 6 10 11 12 13 15`, “mean fluorescence intensity” read 73.3 a.u.
`2'F-ANA at 3 4 5 8 9 13`: “mean fluorescence intensity” 70.6 a.u.
`2'F-ANA at 1 2 5 6 7 10 14` — result for “mean fluorescence intensity”: 45.7 a.u.
`2'F-ANA at 5 6 7 8 11 14 15`: “mean fluorescence intensity” 42.9 a.u.
